Results from different studies.
Protocols differ between the studies behind these lines. Values joined by “and” are separate records of one study, mostly repeats; a detail may differ. Numbers after ± are the reported error.

SMILES | target or system | test | test system | conditions | measurement | result
CCCC(=O)OCSc1ccccc1C(=O)NCCC(N)=O | HIV-1 | viral replication | human PBMC, subtype F 93BR029, CCR5-tropic clinical isolate |  | EC50 | 3.45 ± 1.9 µM
CNc1nc(N)nc2c1ncn2[C@H]1C[C@H](O)[C@](CO)(CF)O1 | HIV-1 M184V | MTT | MT4 |  | IC50 | > 1 µM
Cc1cn([C@H]2C[C@H](N=[N+]=[N-])[C@@H](CO)O2)c(=O)[nH]c1=O | HIV-1 | viral replication | human monocytes/macrophages, subtype B BaL, CCR5-tropic |  | EC50 | 0.0008 µM
C#C[C@]1(CO)O[C@@H](n2cnc3c(N)nc(F)nc32)C[C@@H]1O | HIV-1 T215F |  | MT4 |  | IC50 | 0.0023 ± 1e-05 µM
NC(=O)CCNC(=O)c1ccccc1S | HIV-1 | viral replication | human PBMC, group O BCF01, CCR5-tropic clinical isolate |  | EC50 | 3.24 ± 4.48 µM
Cc1cc(/C=C/C#N)cc(C)c1Nc1nc(Nc2ccc(/C=C/C#N)cc2)ncc1N | HIV-1 | viral replication, single-round infection | RT mutant E138K/M184I |  | EC50 | 0.0061 ± 0.0009 µM
CNC(=O)[C@@H](NC(=O)[C@H](CC(C)C)[C@H](O)C(=O)NO)C(C)(C)C | snake venom metalloproteinase | proteolytic activity, inhibitor | Daboia russelii, venom AP | added: azocasein | IC50 | 1.99 µM and 1.93 µM and 1.95 µM
Nc1ncnc2c([C@@H]3N[C@H](CO)[C@@H](O)[C@H]3O)c[nH]c12 | Marburg virus | viral RNA in cell lysate | HeLa, Musoke | 1.6 µM, 1 h | inhibition | 37%
Cn1c(Cn2ccc(C(F)(F)F)c(Oc3cc(Cl)cc(C#N)c3)c2=O)n[nH]c1=O | HIV-1 | viral replication, single-round infection | RT mutant G190A |  | EC50 | 0.0012 ± 0.0004 µM
Cn1cnc(Cn2c(=O)[nH]/c(=N\c3cc4cn(C)nc4cc3Cl)n(Cc3cc(F)c(F)cc3F)c2=O)n1 |  |  | human, all renal function groups | oral, 375 mg, vessel puncture site haemorrhage TEAE, Mild severity | patients with adverse event | 6.3%
CC[C@H](C)[C@H](NC(=O)[C@H](CC(C)C)NC(=O)[C@H](Cc1c[nH]c2ccccc12)NC(=O)[C@H](CCC(N)=O)NC(=O)[C@@H](NC(=O)[C@H](Cc1ccccc1)NC(=O)[C@H](C)NC(=O)[C@H](CCCCNC(=O)COCCOCCNC(=O)COCCOCCNC(=O)CC[C@H](NC(=O)CCCCCCCCCCCCCCCCCCC(=O)O)C(=O)O)NC(=O)[C@H](CCC(N)=O)NC(=O)[C@H](C)NC(=O)[C@@H](NC(=O)[C@H](CCCCN)NC(=O)[C@H](CC(=O)O)NC(=O)[C@H](CC(C)C)NC(=O)C(C)(C)NC(=O)[C@@H](NC(=O)[C@H](CO)NC(=O)[C@H](Cc1ccc(O)cc1)NC(=O)[C@H](CC(=O)O)NC(=O)[C@H](CO)NC(=O)[C@@H](NC(=O)[C@H](Cc1ccccc1)NC(=O)[C@@H](NC(=O)CNC(=O)[C@H](CCC(=O)O)NC(=O)C(C)(C)NC(=O)[C@@H](N)Cc1ccc(O)cc1)[C@@H](C)O)[C@@H](C)O)[C@@H](C)CC)[C@@H](C)CC)C(C)C)C(=O)N[C@@H](C)C(=O)NCC(=O)NCC(=O)N1CCC[C@H]1C(=O)N[C@@H](CO)C(=O)N[C@@H](CO)C(=O)NCC(=O)N[C@@H](C)C(=O)N1CCC[C@H]1C(=O)N1CCC[C@H]1C(=O)N1CCC[C@H]1C(=O)N[C@@H](CO)C(N)=O |  | refers to: anti-drug antibodies | healthy human subjects | 5/5/8/10 mg escalating, baseline, evaluable subjects | subjects ADA-positive at baseline | 0%
Nc1nc(N)c2ncn([C@H]3C[C@H](O)[C@](CO)(CF)O3)c2n1 | HIV-1 K65R | MTT | MT4 |  | IC50 | 0.0027 ± 0.0005 µM
N#CC(C#N)=NNc1cccc(Cl)c1 | Escherichia coli | checkerboard | tetracycline-resistant (pBR322) | 1 µM, added: tetracycline | tetracycline MIC | 900 µM

Some of these lines once more:
SMILES | target or system | test | test system | conditions | measurement | result
C#C[C@]1(CO)O[C@@H](n2cnc3c(N)nc(F)nc32)C[C@@H]1O | HIV-1 T215F |  | MT4 |  | IC50 | 0.0023 ± 1e-05 µM
CCCC(=O)OCSc1ccccc1C(=O)NCCC(N)=O | HIV-1 | viral replication | human PBMC, subtype F 93BR029, CCR5-tropic clinical isolate |  | EC50 | 3.45 ± 1.9 µM
